# Published values from different studies.
# Parts stem from different laboratories: compare values within a part only. Positions count from the first letter of the parent shown.

# Series 1 — method: RNA Bind-n-Seq; molecule type: RNA; sample: in vitro; tested at: 200 nM; setting: whole 134-nt RNA, ends assumed; together with: 150 mM LiCl; relative to: input library; direction: higher = stronger binding; all molecules: 7-deaza-guanosine replaces G
# Target: Ras GTPase-activating protein-binding protein 1, full length (G3BP1, Homo sapiens, UniProt Q13283)
# UniProt Q13283, sequence (whole entry, looked up): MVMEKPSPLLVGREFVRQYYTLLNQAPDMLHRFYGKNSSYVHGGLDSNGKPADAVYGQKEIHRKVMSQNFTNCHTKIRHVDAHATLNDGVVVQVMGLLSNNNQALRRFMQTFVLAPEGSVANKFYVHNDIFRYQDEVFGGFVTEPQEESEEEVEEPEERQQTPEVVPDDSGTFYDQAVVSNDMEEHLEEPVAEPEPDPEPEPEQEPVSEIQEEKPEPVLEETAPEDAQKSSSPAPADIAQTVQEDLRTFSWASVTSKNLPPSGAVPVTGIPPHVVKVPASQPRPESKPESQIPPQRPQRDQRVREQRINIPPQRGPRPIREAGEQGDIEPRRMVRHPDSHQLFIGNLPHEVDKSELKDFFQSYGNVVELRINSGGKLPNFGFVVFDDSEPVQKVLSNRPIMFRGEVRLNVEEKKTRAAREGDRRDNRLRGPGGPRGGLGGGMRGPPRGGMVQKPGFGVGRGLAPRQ
Strand,log2 enrichment
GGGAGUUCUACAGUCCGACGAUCGUCCUGUGCUACACAUCGUAUGUACCGAAUCAAACCCCCCCAAAUUUUUAAACCCAAAAAAGUAUUAUGUUACGCCGUUCGGAUCUGCACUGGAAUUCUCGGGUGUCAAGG,1.18
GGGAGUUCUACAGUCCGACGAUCCCUGUGCUACACAUCGUAUGUACCGAAUCGGGGUUUUUUGGUUUUUUGGGUUUUUUGGGGAAAGUAUUAUGUUACGCCGUUCGGAUCUGCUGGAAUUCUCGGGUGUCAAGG,-0.903
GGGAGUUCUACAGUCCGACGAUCGCAGGAAGUAAAAACAAAUGGAAAUGCUUCGGAUAGUGGCAGGGGUGGGGGUUGCUAAGGAAAGGGUGGGCUGGGAGUGGGUAAAGAGUUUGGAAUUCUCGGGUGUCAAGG,-0.0343
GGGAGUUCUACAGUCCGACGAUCUCAAGUCCUGUGCUACACAUCGUAUGUACCGAAUCGGUUUGGGGUUUGGUUUGGAAAGUAUUAUGUUACGCCGUUCGGAUCUGCACUUCCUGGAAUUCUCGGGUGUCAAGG,-0.167
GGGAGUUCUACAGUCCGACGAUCCUCAAGUCCUGUGCUACACAUCGUAUGUACCGAAUCGGGAGGGAAAGGGUGGGAAAGUAUUAUGUUACGCCGUUCGGAUCUGCACUUCCAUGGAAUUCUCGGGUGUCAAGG,-0.562
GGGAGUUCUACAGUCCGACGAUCACCAUGCAGGUGGGCAUCUUUGGGAAGUGGGGCAAGGGGGGGAUAGGGAAAGGGGUAACACUUUGGGAACAGGUGGUCCCAGGUCGUUUCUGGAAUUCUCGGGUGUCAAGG,0.393
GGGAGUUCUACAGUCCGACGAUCUCCUGUGCUACACAUCGUAUGUACCGAAUCGGGGUUUUUUGGGGUUUUUUGGUUUUUUGGAAAGUAUUAUGUUACGCCGUUCGGAUCUGCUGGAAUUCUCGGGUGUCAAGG,0.703
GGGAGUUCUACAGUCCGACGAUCCUCAAGUCCUGUGCUACACAUCGUAUGUACCGAAUCGGCCGGGGCCGGGCCGGGAAAGUAUUAUGUUACGCCGUUCGGAUCUGCACUUCCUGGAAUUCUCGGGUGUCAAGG,-0.112
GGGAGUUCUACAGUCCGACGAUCCCUGUGCUACACAUCGUAUGUACCGAAUCGGGGAAAAAAAGGGGUUUUUUUGGGGUGGGGAAAGUAUUAUGUUACGCCGUUCGGAUCUGCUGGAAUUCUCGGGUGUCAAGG,0.0974
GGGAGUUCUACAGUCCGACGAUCCACAGACAACACGCACCCACACAGACACAGAGGGAAGGGGUUGGGAUGGGGACAGGGUGCACAGCAGGGCGGAAAAGGACCCCAGCCCCUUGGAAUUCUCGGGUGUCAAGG,1.11
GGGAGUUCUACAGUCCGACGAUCUGGGAGGUGGAUUUUGUUUAUUUUUUAAGCUCAUUUCCAGGGGUGGGAAUUUUUUUUUAAUAUGUGUCAUGAAUAAAGUUGUUUUUGAAAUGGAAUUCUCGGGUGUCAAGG,-0.866

# Series 2 — method: DHFR PCA, deep sequencing; sample: yeast; together with: (+)-ABA 17 µM; relative to: wild-type fitted maximum; direction: higher = stronger binding
# Target: ABI1, truncated, D143A, DHFR fusion (Arabidopsis thaliana)
# Setting: methotrexate growth selection, single substitutions
# Starting sequence: PYL1, truncated, DHFR fusion (Arabidopsis thaliana); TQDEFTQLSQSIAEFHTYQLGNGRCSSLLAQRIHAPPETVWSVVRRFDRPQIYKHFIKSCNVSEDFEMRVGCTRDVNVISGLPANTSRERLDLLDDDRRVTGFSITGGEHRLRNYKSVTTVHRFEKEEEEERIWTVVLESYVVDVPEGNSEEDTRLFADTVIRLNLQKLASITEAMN; partner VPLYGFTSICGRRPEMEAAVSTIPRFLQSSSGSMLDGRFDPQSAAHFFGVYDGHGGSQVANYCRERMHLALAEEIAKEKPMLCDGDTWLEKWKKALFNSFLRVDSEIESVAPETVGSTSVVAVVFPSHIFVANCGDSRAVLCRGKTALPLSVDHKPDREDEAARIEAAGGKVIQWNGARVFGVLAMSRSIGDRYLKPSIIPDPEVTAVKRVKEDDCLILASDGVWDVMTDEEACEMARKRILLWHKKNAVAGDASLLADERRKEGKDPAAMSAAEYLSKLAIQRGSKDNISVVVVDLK
Substitution,relative binding score [%]
H16V,-10
D48P,-9.65
R88Q,87.7
E151N,73.5
V145D,-2.38
S59E,84.5
F157M,57
V62G,0.613
T135R,17
L156Q,69.3
T160A,39.8
V161S,5.28
E4W,79.5
A170D,8.96
S150N,86.5
T73D,28.4
S140G,-4.44
G21D,85

# Series 3 — method: RNA Bind-n-Seq; molecule type: RNA; sample: in vitro; tested at: 365 nM; relative to: no-protein control; direction: higher = stronger binding
# Target: RNA binding protein fox-1 homolog 2, RRM domain, GST-SBP tag (RBFOX2, Homo sapiens, UniProt O43251-10, residues 100-194)
# Setting: natural RNA segment, single round, ends assumed
# Residues (chain): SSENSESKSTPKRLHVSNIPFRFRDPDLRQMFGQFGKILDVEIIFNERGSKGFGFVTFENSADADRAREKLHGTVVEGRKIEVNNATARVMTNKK
Strand,RBNS enrichment (R)
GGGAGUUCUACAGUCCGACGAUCUCCCUUUUUAAACUCCUGGAAACAUUUUUGUUACCAAAUAAAUCAUGUUUUAUGGUACUCAGCCAUCCAAAAGUGAAAGACCUAGCAUUUGAUUCUGUGCAGGACACAAAUGGAAUUCUCGGGUGCCAA,0.763
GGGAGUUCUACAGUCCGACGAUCUACCUUUUAUAACUGGAUGUUUAGUGUUAAACAGCCAGAAUCACAGAGACAGUAUUGUAUAACCAAAGUAUUUGAUGCCAAAAUUUGACGUUAAAAUAAUGAUUUGAUUUUGGAAUUCUCGGGUGCCAA,0.322
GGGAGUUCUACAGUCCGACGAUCGAGAAUGGCUGCCAGUGGCUGAUGGGUCCCGGUGAUGGGAAGGGUAUCAGGUUGCUGGGGAGUUUCCACUCUUCUCUGGUGAUUGUUCCUUCCCUCCCUUCCUCUCCCACUGGAAUUCUCGGGUGCCAA,0.472
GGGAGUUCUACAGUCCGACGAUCUCGCAUGGACUGGGAAGUUCUUUUAAAUCAUUAAAUAUUAAGACGACCAUCUCUUCUAUUAAAUUACAGUACAUGUUCUAGACCAUUGAGAUCAAGCCUUUACUCCCUUUUGGAAUUCUCGGGUGCCAA,0.319
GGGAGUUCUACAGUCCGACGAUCGCAGCACAAAGGGCAAGGAGAGCCCCAACCCCAGUUGCUCCAAGCUCCCCAAUCACUUAGUCUUCACCUACCCCAUUCCAAUAAGCCUCAUUUCUUCUCAUCCCCUGCUUUGGAAUUCUCGGGUGCCAA,1.63
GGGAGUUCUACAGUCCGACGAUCUCUGUCCCUCCCACCUUGCCUUAUCCUUCAUUGGUUUCUUCACACACUCAAUAAAGAAGCAUGCUUGAGAUCUUAUUGUUCCAAGAUCAGUUUAGCCAAGACAUAAACCGUGGAAUUCUCGGGUGCCAA,6.45
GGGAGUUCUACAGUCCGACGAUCUAAACAGCACUAGUACUGUACACUGGUUUUUUUCCCUUGUGUUUGCUGUUGCACACUGAUUGCUGAGGGUGCAUCAAUUACAAGCAUUGAAUACUCCAUCCCCUUCCCUCUGGAAUUCUCGGGUGCCAA,0.74
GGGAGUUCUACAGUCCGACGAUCAUAACAAAGGGCAGCCCUCCACUUCUGGUAUAAUUGUGUAGCCCCUUUUCUUUGGGCUUGACACCUGUCUUGAAUAAGAGUGAUUAGAGCUGCAUAAUGUCCCUCUCUUGUGGAAUUCUCGGGUGCCAA,1.09
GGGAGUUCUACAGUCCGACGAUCAUAAGUUCCACUGUACAAUGUCCUUUUCAGGUGGAAUUUUCUCUAUUGCUUUGAUAAACAGAGUUGUUUGGAAUUAUUGAAGAACAUUUUAAAAUGACUCCCUCAGUGAGUGGAAUUCUCGGGUGCCAA,0.56
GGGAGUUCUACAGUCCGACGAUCGCUCCUCUGCCACCCGUGACCCCGUGACGUGAUGGGGCCAGGUAACGGGCCGGGCAGUGGUGAGGUCACUGUGAAUGGAGGUUUGUUUCCCAUGAGAUCGGACACUGUCCUGGAAUUCUCGGGUGCCAA,0.693
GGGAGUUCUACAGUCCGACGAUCGAACUGGGUCAAGGCACCCUUGAAGACAGAGGCCAGCUCUGCACAGCAGCAGCGCCCCCUGCUCUCCUGUGCCUCAGCCCUUCUUAUGUUCCCUGAUGUCACACCCCACUUGGAAUUCUCGGGUGCCAA,0.178
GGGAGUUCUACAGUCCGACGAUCUGGCCCGGGACACGGGCACUCUUCAUGACCCCUCCCCCACCUGGGUUCUUCCUGUGUGGUCCAGAACCACGAGCCUGGUAAAGGAACUAUGCAAACACAGGCCCUGACCUUGGAAUUCUCGGGUGCCAA,0.234

# Series 4 — target: HLF, bZIP domain (human); method: DHFR protein complementation; sample: yeast; relative to: wild-type JUN-FOS pair; direction: higher = stronger binding
# Setting: single substitutions, most at no-binding floor
# Starting sequence: JUN, bZIP domain (human); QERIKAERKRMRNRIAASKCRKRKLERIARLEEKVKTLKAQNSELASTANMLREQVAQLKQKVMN; partner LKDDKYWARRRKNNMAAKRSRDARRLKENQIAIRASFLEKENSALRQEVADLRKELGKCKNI
Substitution,binding fitness [natural log]
K39E,-0.996
K36E,-1.41
M51K,-1.41
I28T,-1.48
V56K,-1.51
R30K,-1.35
N42T,-1.46
I28N,-1.45
E54K,-1.22
A29L,-1.38
T37Q,-1.34
R53M,-1.43
K34P,-1.55
S43Y,-1.48
L38G,-1.5
A49T,-1.38
I28L,-1.39
S43V,-1.31
E32I,-1.28
L31S,-1.41
V35F,-1.38
A29G,-1.32
K36P,-1.48
E54Y,-1.4
V35R,-1.51

# Series 5 — target: CCND1, cyclin fold, Cln2 fusion (human); method: yeast growth competition, sequencing; sample: yeast; setting: weak parent motif; relative to: not given; direction: higher = stronger binding
# Starting sequence: SLBP docking peptide (human); ARYKRKLLINDFG; partner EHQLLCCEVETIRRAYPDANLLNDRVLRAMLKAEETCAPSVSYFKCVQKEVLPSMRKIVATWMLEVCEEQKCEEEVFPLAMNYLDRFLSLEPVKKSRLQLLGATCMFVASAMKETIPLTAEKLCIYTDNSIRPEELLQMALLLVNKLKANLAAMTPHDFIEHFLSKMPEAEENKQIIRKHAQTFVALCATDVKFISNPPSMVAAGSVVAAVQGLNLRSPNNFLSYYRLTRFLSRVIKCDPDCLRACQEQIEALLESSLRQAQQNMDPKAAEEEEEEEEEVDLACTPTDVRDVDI
Substitution,normalised enrichment score
ARYKRGLLINDFG [K6G],0.106
ARYKRKMLINDFG [L7M],0.216
ARWKRKLLINDFG [Y3W],0.214
ARYKRKLLIRDFG [N10R],-0.481
ARYKRKLLINGFG [D11G],0.44
ARYKFKLLINDFG [R5F],0.311
ARYKRKLLSNDFG [I9S],0.499
AYYKRKLLINDFG [R2Y],0.405
ARMKRKLLINDFG [Y3M],0.21
AFYKRKLLINDFG [R2F],-0.0904
YRYKRKLLINDFG [A1Y],-0.398
ARYKRKLLIGDFG [N10G],0.916
ARYKRKLLINDFF [G13F],0.448
FRYKRKLLINDFG [A1F],-0.809
ARYKRKLLFNDFG [I9F],0.138
ARYTRKLLINDFG [K4T],-0.597
RRYKRKLLINDFG [A1R],-0.151
ARYKRSLLINDFG [K6S],-0.618
ARYKRKLLINDFL [G13L],-0.503
ARYKRKLLENDFG [I9E],0.218
ARYKRKLLINDFP [G13P],0.254
AAYKRKLLINDFG [R2A],0.155

# For quick reference, copied from above (series 5):
Substitution,normalised enrichment score
AAYKRKLLINDFG [R2A],0.155
ARYKRKLLIRDFG [N10R],-0.481
ARYTRKLLINDFG [K4T],-0.597
ARYKRKMLINDFG [L7M],0.216
ARWKRKLLINDFG [Y3W],0.214
FRYKRKLLINDFG [A1F],-0.809
ARYKRSLLINDFG [K6S],-0.618
